Measurements from different studies.
Parts stem from different laboratories: compare values within a part only. Substitutions count along the parent as printed.

Study 1 — technique: RNA Bind-n-Seq; molecule type: RNA; matrix: in vitro; concentration: not given; baseline: input RNA pool; reading: higher = stronger binding
Target: RING finger protein unkempt homolog, zinc fingers 1-6, GST-SBP tag (UNK, Homo sapiens, UniProt Q9C0B0, residues 30-357)
Chain of UniProt Q9C0B0 (30-357, looked up): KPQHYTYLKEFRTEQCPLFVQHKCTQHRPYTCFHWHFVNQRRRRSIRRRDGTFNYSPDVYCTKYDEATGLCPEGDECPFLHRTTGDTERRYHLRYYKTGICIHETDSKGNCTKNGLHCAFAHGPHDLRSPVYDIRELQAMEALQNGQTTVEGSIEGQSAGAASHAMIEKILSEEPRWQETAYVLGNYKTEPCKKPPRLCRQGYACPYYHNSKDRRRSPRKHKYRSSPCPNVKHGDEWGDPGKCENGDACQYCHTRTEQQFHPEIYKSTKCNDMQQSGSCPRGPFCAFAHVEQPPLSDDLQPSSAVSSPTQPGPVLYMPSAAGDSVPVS
Notes: RNA with constant flanks, human and mouse sites, ends assumed
Strand	bound/input enrichment
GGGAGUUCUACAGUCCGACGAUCACUGAUAUCAAGAAUAUAAAUGCAAAACACAAGAACAAUAAAGUGAAUGUAGUAUUGCAAAAUUUCAUGUACACCAUGUUAAGAGAUAGCAAUGCAACCGCAGCCAAGAUGUCUUUAGAUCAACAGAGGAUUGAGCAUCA	0.217 ratio
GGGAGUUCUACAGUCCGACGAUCGCAGAAGUGAACAAAUUGAGAAGACAAAUCACUCAGAAGAAAAAUGAAAAGGAACAAGAAAGAAGAUUGCAGCAGGCCCUGUUAAGCAGACAGAUGCCAUCCGAAAGUCUGGAGCCAGCGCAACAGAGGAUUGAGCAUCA	0.469 ratio
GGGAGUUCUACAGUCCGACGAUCCUGGCAAAGCAUCCAAAGAGCCUGGCUUCUGUCCUUUCUGGGGCAUGUGAUGGAGAGGUUAAAAUUUGGAAUCUGACUAAACGAAAAUGUAUCCGAACAAUACAAGCACAUGAAGGUUUUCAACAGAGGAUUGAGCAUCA	0.225 ratio
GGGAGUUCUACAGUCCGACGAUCUGGUCGAUAUUCCUGGGAAUGGGGACCUUACUCUGGGGCCAGCUUAUUUCAACCAUUCCAACCAGCCGCUUAAAGUUUCUAAAAGAAGCUGGUCAUGGAACCCAGAAGGAGGAGAUACCUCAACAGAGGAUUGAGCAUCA	0.274 ratio
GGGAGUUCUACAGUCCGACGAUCUGUGAAAUCAGUAGGUUAUCUUUAAUCUUUACACUACAUGCAGAUCCAUAGUAUCCUUUGUAGUGUUGUAAAUACUUUUGCUUUGAAAACUUUUUCAUUGUCCUAAAUCACCCUGACUCUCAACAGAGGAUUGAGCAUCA	0.571 ratio
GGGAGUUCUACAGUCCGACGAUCGACGUAUUUUCUGUGUAAUUCUCUUGUUCUUAUACUACCUGCAUUAUCUUUAUGUCACUGUAGCAAAUGCCUAUCAUAAGUCAACUCUCAGGAGCCAUAAUGGGACAAGCUAAUAACUAGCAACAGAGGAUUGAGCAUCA	0.146 ratio
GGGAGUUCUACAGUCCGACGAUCAAUGCUGUUCGCCAAAAUGGACAGCUGGUCAGAAAUGAUUCUCUGUAUGGCAUUUCAAAUAUAGAUACAACCAUUGAAGGAACGUCAGAUGACCUGACUGUUGUAGAUGCAGCUUCACUACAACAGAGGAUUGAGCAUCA	0.276 ratio

Study 2 — target: CCNF, cyclin fold, Cln2 fusion (human); technique: yeast growth competition, sequencing; matrix: yeast; notes: strong parent motif; baseline: not given; reading: higher = stronger binding
Starting sequence: MICAL3 docking peptide (human); LQLRRQLSFSEDS
Change	normalised enrichment score
R4D	0.207
E11S	5.38
L7H	0.0903
D12M	5.6
S10I	4.96
S8P	1.29
R5M	0.322
L7I	2.02
Q6Y	2.68
Q6F	1.79

Study 3 — technique: RNA Bind-n-Seq; molecule type: RNA; matrix: in vitro; concentration: 365 nM; baseline: no-protein control; reading: higher = stronger binding
Target: RNA binding protein fox-1 homolog 2, RRM domain, GST-SBP tag (RBFOX2, Homo sapiens, UniProt O43251-10, residues 100-194)
Notes: natural RNA segment, single round, ends assumed
Residues (chain): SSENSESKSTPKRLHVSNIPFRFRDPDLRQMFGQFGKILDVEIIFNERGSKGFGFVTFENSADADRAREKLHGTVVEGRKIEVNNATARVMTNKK
Strand	RBNS enrichment (R)
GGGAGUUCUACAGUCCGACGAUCGUUUUUAAGUUACUUUCGAUGUGUAUACGAACAAAGACCAGGGAGAAACAGAACUUUUAAAACUAUAGGCUGCUGUGUUGGGGCCAGAAAUAAGGUGACAAGUAAAGACUUGGAAUUCUCGGGUGCCAA	1.01
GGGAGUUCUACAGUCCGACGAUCGAGGAUAGCAGGCUGGACUAUUGGUGGGCACCUUUCAAGCCCAGGGCUACUGUUUGUCCUGUGGCAGCCGGCUACAGUCUCGUCUGAGUGGCCUCAUCUGGACCCUUCCUUGGAAUUCUCGGGUGCCAA	0.268
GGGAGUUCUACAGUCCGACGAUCAAAUGCUUACCGUGUGACCCUUGGGCUUUCAGCGUGCACUCAGUUCCGUAGGAUUCCAAAGCAGACCCCUAGCUGGUCUUUGAAUCUGCAUGUACUUCACGUUUUCUAUAUGGAAUUCUCGGGUGCCAA	9.98
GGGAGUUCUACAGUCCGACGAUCAACUCUCUUGGCAGAUGUGUGAAAGGAUUCUUGCUUGAUCAAACACUAAGUAUUUUUUUGGUUCUUGUUUUUCUUUCAAAUAGCCAGGUUUUUUUCUUUUGGUAUUUGCAUGGAAUUCUCGGGUGCCAA	2.16
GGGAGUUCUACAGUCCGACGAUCCUAAGAGCAUGGCCUCUCCCAGAACCCACCCAGGGUGGUGUGGUGGGGGCAACAGGGGCCAGACUCCUCUAGAGGGAGGGUGGCUCUGGGGCCCUGGAAAACGUGAGAGAUGGAAUUCUCGGGUGCCAA	0.793
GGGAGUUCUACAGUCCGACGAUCGCUCUAAUCUGUAGAUCAAAAUGUAGAAGUUUGUGCAUUAUUAAGAGGAAAGUCUUGUGCCAAGAAUAGUUUAACUGGAAAGAUACUACCUGGAAUAUUAGAUGGAAAGCUGGAAUUCUCGGGUGCCAA	1.73
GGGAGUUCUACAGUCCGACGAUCACACCGGGCGCGCAUAACCACCCCUAAUCCCGGUAUUCAGUGGUGAUGCCUAAAGGAAUGUCAGAAAUUUCCGGGUUUUGUCUAUUGUUGACGCCUACAGGGAAUGUGAAUGGAAUUCUCGGGUGCCAA	4.59
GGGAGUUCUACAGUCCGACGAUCUAAGAAAGGCGCUUUACAGAUAUAAAGAAAGGGAACAUGACAGCUGCCUGAUGGCUUAGCCUGGAGACCUCCUCAUUGCCAAAGUUGUUCCCAUGCCACAAAGCAUCUCUUGGAAUUCUCGGGUGCCAA	2.02
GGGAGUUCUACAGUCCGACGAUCCAGGCUUUCUGCCUUGCCAUGAGGAGGAGGUGUAGACUUGUGAGUGCUCUCUCCGCUCUGAGUGGCCCUCGGGGAACCACCUGCUUUCCAUCUGUGGGGUGGGGCGCUCGUGGAAUUCUCGGGUGCCAA	0.399
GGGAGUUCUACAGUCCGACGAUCUUUUGUUAUAUCUGAACUAGUUGAACUGUGACUGACAGGUAAUCCUAAUAUAUCCAAAUCCAACUGAAUACCAAAUUGAGAUGGCAAAUUUUUGUUUGAUAUAAGUUAGCUGGAAUUCUCGGGUGCCAA	0.211

Other studies, line by line
Substance	target	test	system	conditions	how to read	measurement	result
PhoQ, residues 284 288 289 292 302 303 AGCYAI	PhoP, residues 12 14 15 18 19 LHTVM (Escherichia coli, UniProt P23836)	Sort-seq, measured: YFP reporter	E. coli	PhoQ-PhoP variant library, together with: 10 µM Mg2+	baseline: high Mg2+ state, higher = stronger signaling	fold induction	6

Excerpt of the above (study 1):
Strand	bound/input enrichment
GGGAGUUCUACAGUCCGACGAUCACUGAUAUCAAGAAUAUAAAUGCAAAACACAAGAACAAUAAAGUGAAUGUAGUAUUGCAAAAUUUCAUGUACACCAUGUUAAGAGAUAGCAAUGCAACCGCAGCCAAGAUGUCUUUAGAUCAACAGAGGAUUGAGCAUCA	0.217 ratio
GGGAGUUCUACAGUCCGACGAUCGCAGAAGUGAACAAAUUGAGAAGACAAAUCACUCAGAAGAAAAAUGAAAAGGAACAAGAAAGAAGAUUGCAGCAGGCCCUGUUAAGCAGACAGAUGCCAUCCGAAAGUCUGGAGCCAGCGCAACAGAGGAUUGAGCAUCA	0.469 ratio
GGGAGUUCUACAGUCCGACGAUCCUGGCAAAGCAUCCAAAGAGCCUGGCUUCUGUCCUUUCUGGGGCAUGUGAUGGAGAGGUUAAAAUUUGGAAUCUGACUAAACGAAAAUGUAUCCGAACAAUACAAGCACAUGAAGGUUUUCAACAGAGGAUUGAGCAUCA	0.225 ratio
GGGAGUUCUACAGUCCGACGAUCUGUGAAAUCAGUAGGUUAUCUUUAAUCUUUACACUACAUGCAGAUCCAUAGUAUCCUUUGUAGUGUUGUAAAUACUUUUGCUUUGAAAACUUUUUCAUUGUCCUAAAUCACCCUGACUCUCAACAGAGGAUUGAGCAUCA	0.571 ratio
